# Results gathered from unrelated publications.
# Protocols differ between the studies behind these lines. Numbers after ± are the reported error.
SMILES,assay,system,setting,tissue uptake
CN1Cc2cc(Cl)ccc2-n2c(nnc2C2CCN(c3cccc([18F])n3)CC2)C1,,"C57BL/6 mouse male, liver","intravenous, 3.7 MBq, 5 min",26.4 ± 3.27 %ID/g
CC[C@H](C)[C@H](NC(=O)[C@H](CCCNC(=N)N)NC(=O)[C@H](CCCCN)NC(=O)[C@H](Cc1ccc(O)cc1)NC(=O)[C@H](CC(=O)O)NC(=O)[C@H](C)NC(=O)CNC(=O)CCOCCOCCOCCNC(=O)CN1CCN(CC(=O)O)CCN(CC(=O)O)CCN(CC(=O)O)CC1)C(=O)N[C@H](C(=O)N[C@H](C(=O)N[C@@H](CCCCN)C(=O)N[C@H](C(=O)N[C@@H](CC(N)=O)C(N)=O)C(C)C)C(C)C)[C@@H](C)O [copper-64 labelled],ex vivo gamma counting,"C57BL/6J male mice, B16-F10 tumour, blood","intravenous, 1.85 MBq, 100 min",0.47 ± 0.054 %ID/g
CC[C@H](C)[C@H](NC(=O)[C@H](CCCCN)NC(=O)CNC(=O)[C@H](CC(C)C)NC(=O)[C@H](Cc1ccccc1)NC(=O)[C@H](CCCCN)NC(=O)[C@H](CO)NC(=O)[C@H](Cc1ccccc1)NC(=O)[C@H](Cc1c[nH]c2ccccc12)NC(=O)[C@H](CCC(N)=O)NC(=O)[C@@H](NC(=O)[C@H](Cc1ccccc1)NC(=O)CCCCCNC(=O)CN1CCN(CC(=O)O)CCN(CC(=O)O)CCN(CC(=O)O)CC1)C(C)C)C(=O)N[C@@H](CCC(=O)O)C(=O)N1CCC[C@H]1C(=O)N[C@@H](CC(=O)O)C(=O)N[C@H](C(=O)N[C@@H](CO)C(=O)N[C@@H](CCC(N)=O)C(=O)N[C@H](C(=O)N[C@@H](CCC(N)=O)C(=O)N[C@@H](CC(=O)O)C(=O)N1CCC[C@H]1C(=O)N[C@@H](CC(N)=O)C(=O)N[C@@H](CC(=O)O)C(=O)N[C@@H](CCC(N)=O)C(=O)N[C@@H](Cc1ccc(O)cc1)C(=O)N[C@@H](CCC(=O)O)C(=O)N1CCC[C@H]1C(=O)N[C@@H](Cc1ccccc1)C(=O)O)C(C)C)C(C)C [copper-64 labelled],,"C57BL/6 mice, male, tumour-free, small intestine",0.5 h,8.4 ± 0.07 %ID/g
CC(C)C[C@@H](NC(=O)[C@@H](CCCNC(=N)N)NC(=O)[C@@H](Cc1c[nH]cn1)NC(=O)[C@@H](Cc1c[nH]c2ccccc12)NC(=O)[C@@H](Cc1c[nH]cn1)NC(=O)[C@@H](Cc1ccccc1)NC(=O)[C@H](NC(=O)[C@@H](Cc1ccc(O)cc1)NC(=O)CNC(=O)CNC(=O)CCOCCOCCOCCNC(=O)CN1CCN(CC(=O)O)CCN(CC(=O)O)CC1)[C@H](C)O)C(=O)N[C@H](CC(N)=O)C(=O)N1CCC[C@@H]1C(=O)O [gallium-68 labelled],gamma counting,"C57BL/6 mice, male, heart","intravenous, 1.85 MBq, 30 min",2.5 ± 0.32 %ID/g
CC[C@H](C)[C@H](NC(=O)[C@H](CCCNC(=N)N)NC(=O)[C@H](CCCCN)NC(=O)[C@H](Cc1ccc(O)cc1)NC(=O)[C@H](CC(=O)O)NC(=O)[C@H](C)NC(=O)CNC(=O)CCOCCOCCOCCNC(=O)CN1CCN(CC(=O)O)CCN(CC(=O)O)CCN(CC(=O)O)CC1)C(=O)N[C@H](C(=O)N[C@@H](CC(C)C)C(=O)N[C@@H](CCCCN)C(=O)N[C@H](C(=O)N[C@@H](CC(N)=O)C(N)=O)C(C)C)[C@@H](C)O [copper-64 labelled],ex vivo gamma counting,"C57BL/6J male mice, B16-F10 tumour, stomach","intravenous, 1.85 MBq, 40 min",1.06 ± 0.255 %ID/g
CSCC[C@H](NC(=O)CNC(=O)[C@H](CCCCN)NC(=O)[C@H](CC(C)C)NC(=O)[C@@H]1CCCN1C(=O)[C@H](CO)NC(=O)[C@H](Cc1c[nH]cn1)NC(=O)[C@H](Cc1c[nH]c2ccccc12)NC(=O)[C@H](CCCNC(=N)N)NC(=O)[C@H](CC(C)C)NC(=O)[C@H](CCCNC(=N)N)NC(=O)[C@H](Cc1c[nH]c2ccccc12)NC(=O)[C@H](CS)NC(=O)CCCCCNC(=O)CN1CCN(CC(=O)O)CCN(CC(=O)O)CCN(CC(=O)O)CC1)C(=O)O [copper-64 labelled],ex vivo biodistribution,"BALB/c nude mice, stomach","intravenous, dose not given, 1 h, Huh-7 tumour-bearing",2.93 %ID/g
C[C@H](O)[C@@H](NC(=O)[C@H]1CCCN1C(=O)[C@@H](CCCCN)NC(=O)[C@@H](CO)NC(=O)[C@@H](Cc1ccc(O)cc1)NC(=O)[C@@H](CC(N)=O)NC(=O)CCOCCOCCOCCNC(=O)CN1CCN(CC(=O)O)CCN(CC(=O)O)CCN(CC(=O)O)CC1)C(=O)N[C@H](CC(=O)O)C(=O)N[C@H](CCCNC(=N)N)C(=O)N[C@H](CCC(N)=O)C(=O)N[C@H](Cc1ccc(O)cc1)C(=O)N[C@H](Cc1c[nH]cn1)C(=O)N[C@H](Cc1ccccc1)C(N)=O [gallium-68 labelled],,"BALB/c nude mice U-87 MG tumour, stomach","intravenous, 1.85 MBq, 1 h, radiolabelled",0.08 ± 0.01 %ID/g
CCCC[C@H]1C(=O)N(C)[C@@H](CCCC)C(=O)N[C@@H](CCCNC(=O)CN2CCN(CC(=O)O)CCN(CC(=O)O)CCN(CC(=O)O)CC2)C(=O)N[C@H](C(=O)NCC(N)=O)CSCC(=O)N[C@@H](Cc2ccc(O)cc2)C(=O)N(C)[C@@H](C)C(=O)N[C@@H](CC(N)=O)C(=O)N2CCC[C@H]2C(=O)N[C@@H](Cc2c[nH]cn2)C(=O)N[C@@H](CC(C)C)C(=O)N(C)CC(=O)N[C@@H](Cc2c[nH]c3ccccc23)C(=O)N[C@@H](CO)C(=O)N[C@@H](Cc2c[nH]c3ccccc23)C(=O)N1C [gallium-68 labelled],,"NOD/SCID mice with CHO-hPD-L1 xenograft, bone",30 min post injection,1.78 ± 0.1 %ID/g

# Excerpt of the above:
SMILES,assay,system,setting,tissue uptake
CSCC[C@H](NC(=O)CNC(=O)[C@H](CCCCN)NC(=O)[C@H](CC(C)C)NC(=O)[C@@H]1CCCN1C(=O)[C@H](CO)NC(=O)[C@H](Cc1c[nH]cn1)NC(=O)[C@H](Cc1c[nH]c2ccccc12)NC(=O)[C@H](CCCNC(=N)N)NC(=O)[C@H](CC(C)C)NC(=O)[C@H](CCCNC(=N)N)NC(=O)[C@H](Cc1c[nH]c2ccccc12)NC(=O)[C@H](CS)NC(=O)CCCCCNC(=O)CN1CCN(CC(=O)O)CCN(CC(=O)O)CCN(CC(=O)O)CC1)C(=O)O [copper-64 labelled],ex vivo biodistribution,"BALB/c nude mice, stomach","intravenous, dose not given, 1 h, Huh-7 tumour-bearing",2.93 %ID/g
